Measured values from different studies.
Protocols differ between the studies behind these lines. Numbers after ± are the reported error.
DCLRE1A: DNA cross-link repair 1A protein (DCLRE1A, Homo sapiens, UniProt Q6PJP8)
Sequence of UniProt Q6PJP8 (whole entry, looked up): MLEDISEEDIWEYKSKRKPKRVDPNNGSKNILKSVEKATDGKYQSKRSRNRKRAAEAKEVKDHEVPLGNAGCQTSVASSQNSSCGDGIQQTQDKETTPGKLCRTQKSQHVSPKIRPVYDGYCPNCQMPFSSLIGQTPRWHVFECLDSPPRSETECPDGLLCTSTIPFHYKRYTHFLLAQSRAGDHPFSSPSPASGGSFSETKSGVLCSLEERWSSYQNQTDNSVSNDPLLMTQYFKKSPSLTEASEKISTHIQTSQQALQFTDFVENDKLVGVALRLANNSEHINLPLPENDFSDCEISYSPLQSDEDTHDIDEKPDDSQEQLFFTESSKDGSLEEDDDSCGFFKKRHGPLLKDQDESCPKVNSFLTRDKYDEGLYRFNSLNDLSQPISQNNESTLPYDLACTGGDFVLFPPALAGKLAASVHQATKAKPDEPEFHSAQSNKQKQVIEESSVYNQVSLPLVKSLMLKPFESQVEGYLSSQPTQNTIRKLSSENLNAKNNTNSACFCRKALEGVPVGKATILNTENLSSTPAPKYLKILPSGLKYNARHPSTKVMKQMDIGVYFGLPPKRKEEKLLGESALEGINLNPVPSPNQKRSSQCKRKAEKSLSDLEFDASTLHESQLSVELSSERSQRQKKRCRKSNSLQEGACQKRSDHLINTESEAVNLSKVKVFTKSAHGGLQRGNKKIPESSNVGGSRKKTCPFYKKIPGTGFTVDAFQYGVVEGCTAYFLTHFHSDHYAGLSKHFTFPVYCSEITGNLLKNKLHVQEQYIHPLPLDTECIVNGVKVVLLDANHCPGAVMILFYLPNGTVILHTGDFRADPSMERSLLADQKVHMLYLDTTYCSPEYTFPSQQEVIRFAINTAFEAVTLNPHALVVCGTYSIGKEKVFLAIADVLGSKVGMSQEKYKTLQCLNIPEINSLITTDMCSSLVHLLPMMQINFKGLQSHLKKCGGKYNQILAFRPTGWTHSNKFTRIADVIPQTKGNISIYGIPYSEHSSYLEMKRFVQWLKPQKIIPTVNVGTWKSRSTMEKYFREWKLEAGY
ARAF: Serine/threonine-protein kinase A-Raf (ARAF, Homo sapiens, UniProt P10398)
Sequence of UniProt P10398 (whole entry, looked up): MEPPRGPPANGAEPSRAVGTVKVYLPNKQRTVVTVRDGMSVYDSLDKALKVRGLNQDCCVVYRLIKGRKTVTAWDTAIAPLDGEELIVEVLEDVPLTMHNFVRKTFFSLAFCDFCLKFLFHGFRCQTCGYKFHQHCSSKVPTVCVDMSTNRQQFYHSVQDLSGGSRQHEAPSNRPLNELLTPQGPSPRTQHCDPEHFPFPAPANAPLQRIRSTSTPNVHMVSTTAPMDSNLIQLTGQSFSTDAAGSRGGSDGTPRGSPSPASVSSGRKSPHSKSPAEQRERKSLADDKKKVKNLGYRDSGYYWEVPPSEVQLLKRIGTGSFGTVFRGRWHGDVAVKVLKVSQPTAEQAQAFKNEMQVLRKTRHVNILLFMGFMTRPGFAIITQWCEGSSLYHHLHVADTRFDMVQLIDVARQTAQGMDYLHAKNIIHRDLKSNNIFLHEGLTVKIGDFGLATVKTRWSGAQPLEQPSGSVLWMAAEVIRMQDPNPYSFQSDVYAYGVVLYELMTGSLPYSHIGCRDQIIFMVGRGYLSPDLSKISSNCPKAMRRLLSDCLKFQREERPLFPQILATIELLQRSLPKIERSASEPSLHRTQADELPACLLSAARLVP
EPHB1: Ephrin type-B receptor 1 (EPHB1, Homo sapiens, UniProt P54762)
Sequence of UniProt P54762 (whole entry, looked up): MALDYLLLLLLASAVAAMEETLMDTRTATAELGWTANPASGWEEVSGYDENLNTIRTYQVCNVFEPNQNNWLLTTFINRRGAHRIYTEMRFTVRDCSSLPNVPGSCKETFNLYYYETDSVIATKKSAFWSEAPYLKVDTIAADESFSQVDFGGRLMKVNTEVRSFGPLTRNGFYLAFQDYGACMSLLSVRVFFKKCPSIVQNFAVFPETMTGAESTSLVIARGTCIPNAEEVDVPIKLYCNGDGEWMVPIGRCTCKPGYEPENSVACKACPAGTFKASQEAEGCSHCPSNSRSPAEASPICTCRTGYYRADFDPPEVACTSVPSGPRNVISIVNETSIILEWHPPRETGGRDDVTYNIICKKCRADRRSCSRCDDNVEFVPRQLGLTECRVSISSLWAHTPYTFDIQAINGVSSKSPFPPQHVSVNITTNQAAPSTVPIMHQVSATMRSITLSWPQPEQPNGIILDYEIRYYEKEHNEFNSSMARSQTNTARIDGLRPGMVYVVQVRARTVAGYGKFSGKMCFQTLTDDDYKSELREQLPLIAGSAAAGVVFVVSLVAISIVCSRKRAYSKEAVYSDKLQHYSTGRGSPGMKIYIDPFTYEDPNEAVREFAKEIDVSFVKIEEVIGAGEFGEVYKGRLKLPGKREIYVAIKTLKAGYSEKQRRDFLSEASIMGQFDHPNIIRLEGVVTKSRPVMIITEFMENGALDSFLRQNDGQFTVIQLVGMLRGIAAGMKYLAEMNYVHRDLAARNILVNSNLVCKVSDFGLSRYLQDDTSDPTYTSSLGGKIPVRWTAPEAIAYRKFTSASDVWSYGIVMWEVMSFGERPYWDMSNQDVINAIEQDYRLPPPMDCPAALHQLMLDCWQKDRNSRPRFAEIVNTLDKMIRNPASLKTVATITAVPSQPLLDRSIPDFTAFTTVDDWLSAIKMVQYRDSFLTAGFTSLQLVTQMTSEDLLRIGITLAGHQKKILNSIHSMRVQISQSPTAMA
Sequence of UniProt Q8BTI9 (whole entry, looked up): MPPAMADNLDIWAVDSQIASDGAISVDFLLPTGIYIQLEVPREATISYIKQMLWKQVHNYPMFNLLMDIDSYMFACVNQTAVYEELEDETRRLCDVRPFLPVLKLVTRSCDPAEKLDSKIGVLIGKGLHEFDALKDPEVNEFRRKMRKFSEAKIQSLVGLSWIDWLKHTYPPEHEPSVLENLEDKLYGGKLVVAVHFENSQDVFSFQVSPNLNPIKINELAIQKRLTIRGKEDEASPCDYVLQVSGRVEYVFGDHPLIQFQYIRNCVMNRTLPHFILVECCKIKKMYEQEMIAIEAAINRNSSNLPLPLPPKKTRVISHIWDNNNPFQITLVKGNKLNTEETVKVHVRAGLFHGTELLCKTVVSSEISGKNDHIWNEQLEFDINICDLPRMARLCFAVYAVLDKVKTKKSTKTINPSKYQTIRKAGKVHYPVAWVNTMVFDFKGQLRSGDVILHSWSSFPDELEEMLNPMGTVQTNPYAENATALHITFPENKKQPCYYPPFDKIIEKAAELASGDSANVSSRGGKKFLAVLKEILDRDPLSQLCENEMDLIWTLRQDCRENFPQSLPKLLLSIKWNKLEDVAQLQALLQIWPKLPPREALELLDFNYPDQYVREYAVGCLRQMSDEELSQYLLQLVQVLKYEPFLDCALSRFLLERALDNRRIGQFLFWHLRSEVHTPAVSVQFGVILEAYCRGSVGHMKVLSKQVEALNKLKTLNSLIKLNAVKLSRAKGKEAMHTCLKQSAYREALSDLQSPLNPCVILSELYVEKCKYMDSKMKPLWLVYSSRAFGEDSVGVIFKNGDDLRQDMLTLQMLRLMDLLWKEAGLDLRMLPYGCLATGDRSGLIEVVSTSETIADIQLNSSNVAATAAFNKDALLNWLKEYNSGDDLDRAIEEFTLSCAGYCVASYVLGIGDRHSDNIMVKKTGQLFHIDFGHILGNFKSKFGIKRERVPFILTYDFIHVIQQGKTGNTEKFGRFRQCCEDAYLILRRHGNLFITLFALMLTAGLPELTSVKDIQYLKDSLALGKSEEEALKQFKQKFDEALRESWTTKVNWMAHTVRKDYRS

`Nc1c(S(=O)(=O)O)cc(Nc2ccc(Nc3nc(Cl)nc(Nc4cccc(S(=O)(=O)O)c4)n3)c(S(=O)(=O)O)c2)c2c1C(=O)c1ccccc1C2=O` gave a remaining activity of 18.7% (DCLRE1A; exonuclease activity, inhibitor, fluorescence HTS; 10 µM, 80 min, added: 8 nM 5P-FQ substrate).
`COc1cc(-c2cncc3c2CN(C)Cc2cc(N4CCNCC4)ccc2-3)cc(OC)c1OC` gave a remaining activity of 101% (STK32B (Homo sapiens, UniProt Q9NY57); kinase activity; 1 µM, human enzyme, added: ATP 10 µM; relative to: DMSO control).
`CC#CC(=O)N1CCC[C@H]1c1nc(-c2ccc(C(=O)Nc3ccccn3)cc2)c2c(N)nccn12` has a remaining activity of 93.9 ± 0.8% (ARAF; kinase activity, inhibitor, HotSpot radiometric; 100 nM, added: ATP 10 µM).
For `NC/C(=C\F)COc1cccc(Cn2c(=S)[nH]c(=O)c3[nH]cnc32)c1`, the remaining activity was -4.18% (Myeloperoxidase (MPO, Homo sapiens, UniProt P05164); H2O2 consumption, H2O2-specific electrode; 10 µM; relative to: control).
For `Cc1cc(NC(=O)c2cccc(NC(=O)/C=C/CN(C)C)c2)ccc1Nc1nccc(-c2cccnc2)n1`, the remaining activity was 0.655 (MAPK8 (Homo sapiens, UniProt P45983); enzyme activity, inhibitor; 0.02032 µM, 0 h, unit not given, added: GSH 10 mM pre-incubation; relative to: vehicle).
The remaining activity of `COc1cc(F)ccc1-c1ncnc(Nc2cccc(C[S@](C)(=N)=O)c2)n1` is reported as 107% (Map2k4 (Mus musculus, UniProt P47809); kinase activity; 10 µM, added: 10 µM ATP).
For `O=C(NC1CCC1)c1ccc2nc(-c3cccc(NS(=O)(=O)NCCN4CCCCC4)c3)cn2c1`, the remaining activity was 100% (EPHB1; enzyme activity; 10 µM).
With `O=C(O)c1ccc(Nc2ncc3c(n2)-c2ccc(Cl)cc2C(c2c(F)cccc2F)=NC3)cc1` the remaining activity was 109% (CHK1(h); kinase activity; 1 µM).
Under “fold change in expression”, `Cn1cc(-c2ccc(-c3cncc(Cl)c3N3CCC4(CCNC4=O)CC3)cc2)cn1` is recorded as 2.01 (COLO 205; microarray, measured: EDN1; concentration not given, 2 h, gene set Endothelin-1; relative to: untreated cells).
`COc1cc(N2CCN(C)CC2)ccc1Nc1nc(N)n(C(=O)NCc2c(Cl)cccc2Cl)n1` gave a remaining activity of 28% (CSNK2A2 (Homo sapiens, UniProt P19784); enzyme activity; 10 µM; relative to: control).
`C1=C/COCc2cc(ccc2OCCN2CCCC2)Nc2nccc(n2)-c2cccc(c2)COC/1` has a remaining activity of 92% (EGFR (Homo sapiens, UniProt P00533, del752-759); concentration not given; relative to: untreated control).
`O=c1cc(-c2ccc(O)c(-c3c(O)cc(O)c4c(=O)cc(-c5ccc(O)cc5)oc34)c2)oc2cc(O)cc(O)c12` gave a remaining activity of 35.4% (DCLRE1A; exonuclease activity, inhibitor, fluorescence HTS; 10 µM, 80 min, added: 8 nM 5P-FQ substrate).
With `C=CC(=O)N1CCC([C@@H]2CCNc3c(C(N)=O)c(-c4ccc(Oc5ccccc5)cc4)nn32)CC1` the remaining activity was 87.4 ± 1.4% (ARAF; kinase activity, inhibitor, HotSpot radiometric; 100 nM, added: ATP 10 µM).
With `O=C([O-])c1ccccc1-c1c2cc(I)c(=O)c(I)c-2oc2c(I)c([O-])c(I)cc12.[Na+].[Na+]` the remaining activity was 51.7% (DCLRE1A; exonuclease activity, inhibitor, fluorescence HTS; 10 µM, 80 min, added: 8 nM 5P-FQ substrate; relative to: high and low controls).
`COCCN(C)C(=O)c1ccc(C2CCCCC2)cc1` gave a hepatic clearance of 26 mL/min/kg (liver microsome stability; dog liver microsomes; 1 µM).
The remaining activity of `COc1ccc2oc(-c3ccc4nc(N)oc4c3)c/c(=N\c3ccccc3NC(=O)CCN)c2c1` is reported as 93% (Phosphatidylinositol 4,5-bisphosphate 3-kinase catalytic subunit beta isoform, with p85 beta (Pik3cb, Mus musculus, UniProt Q8BTI9); 1 µM; relative to: untreated).
With `O=C(Cc1cccnc1)Nc1ccc(C2CCCCC2)cc1` the hepatic clearance was 28 mL/min/kg (cynomolgus liver microsomes; 1 µM).
`CC1=C(CCC(=O)O)c2cc3[nH]c(cc4nc(cc5[nH]c(cc1n2)c(C)c5C(C)O)C(C)=C4C(C)O)c(C)c3CCC(=O)O` (stereo not drawn) gave a remaining activity of 17.7% (DCLRE1A; exonuclease activity, inhibitor, fluorescence HTS; 10 µM, 80 min, added: 8 nM 5P-FQ substrate).
The remaining activity of `Cc1[nH]c(/C=C2\C(=O)Nc3ccc(F)cc32)c(C)c1C(=O)N[C@H]1CCN(C(=O)N(C)C)C1` is reported as 74% (AMPK, rat; kinase activity, KinaseProfiler; 0.1 µM; relative to: control).
With `COc1cc(Nc2ncc3c(n2)-c2ccc(Cl)cc2C(c2c(F)cccc2OC)=NC3)ccc1C(=O)O` the remaining activity was 105% (ZAP70; kinase activity; 1 µM).
`N#CC(C#N)=C(N)/C(C#N)=C/c1cc(O)c(O)c(O)c1` gave a remaining activity of 17.3% (DCLRE1A; exonuclease activity, inhibitor, fluorescence HTS; 10 µM, 80 min, added: 8 nM 5P-FQ substrate).
`C=CC(=O)N1CCC[C@@H](n2nc(-c3ccc(Oc4ccccc4)cc3)c3c(N)ncnc32)C1` gave a remaining activity of 37 ± 0.8% (ARAF; kinase activity, inhibitor, HotSpot radiometric; 100 nM, added: ATP 10 µM).
The remaining activity of `Cc1cc(Nc2cc(N3CCN(C)CC3)nc(Sc3ccc(NC(=O)C4CC4)cc3)n2)[nH]n1` is reported as 107% (PRKACA (Homo sapiens, UniProt P17612); kinase activity, KinaseProfiler; 0.03 µM, species human; relative to: control).
`C[n+]1c2cc(N)ccc2cc2ccc(N)cc21.[Cl-]` has a remaining activity of 19.8% (DCLRE1A; exonuclease activity, inhibitor, fluorescence HTS; 10 µM, 80 min, added: 8 nM 5P-FQ substrate; relative to: high and low controls).
With `O=C1NC(=O)/C(=C/c2ccc(-c3ccc(F)cc3O)o2)S1` the remaining activity was 94% (EPHB1; enzyme activity; 10 µM).
For `C[C@@H](Oc1ccc(S(C)(=O)=O)cc1C(=O)N1C[C@@H]2C[C@]2(c2cc(C(F)(F)F)on2)C1)C(F)(F)F`, the remaining activity was 93.9% (SLC6A9 (Homo sapiens, UniProt P48067, G373S); glycine uptake, inhibitor, [3H]glycine uptake; 0.001 µM, G319S mutant, log concentration 1, added: [3H]glycine; relative to: no inhibitor).
`COc1ccc(-c2coc3cc(O)ccc3c2=O)c(O)c1O` gave a remaining activity of 49.3% (DCLRE1A; exonuclease activity, inhibitor, fluorescence HTS; 10 µM, 80 min, added: 8 nM 5P-FQ substrate).
For `C=CC(=O)N1CCC[C@@H](n2nc(-c3ccc(Oc4ccccc4)cc3)c3c(N)ncnc32)C1`, the remaining activity was 165% (EPHB1; 1 µM).
For `Cc1cc2c(C(C)C)c(O)c(O)c(C=O)c2c(O)c1-c1c(C)cc2c(C(C)C)c(O)c(O)c(C=O)c2c1O`, the remaining activity was 38.6% (DCLRE1A; exonuclease activity, inhibitor, fluorescence HTS; 10 µM, 80 min, added: 8 nM 5P-FQ substrate).
`Cc1ccc(NC(=O)c2ccc(C)c(C(F)(F)F)c2)cc1C#Cc1nn(C2CCC(O)CC2)c2ncnc(N)c12` (stereo not drawn) gave a remaining activity of 84% (Phosphatidylinositol 4,5-bisphosphate 3-kinase catalytic subunit beta isoform, with p85 alpha (Pik3cb, Mus musculus, UniProt Q8BTI9); enzyme activity, inhibitor; 10 µM, p110b/p85a)(m mouse, added: ATP 10 µM).
`COc1cc(N2CCN(C)CC2)ccc1Nc1nc(N)n(C(=S)NCc2c(Cl)cccc2Cl)n1` gave a remaining activity of 1.1% (STK11 (Homo sapiens, UniProt Q15831); enzyme activity; 10 µM; relative to: control).
`CNc1ncc2c(/C=C/C(=O)N3CCC(OC)CC3)nn(Cc3cccc(C(F)(F)F)c3)c2n1` has a remaining activity of 102% (MYLK (Homo sapiens, UniProt Q15746); kinase activity, inhibitor; 1 µM; relative to: untreated control).
The remaining activity of `COc1ccc(F)cc1C(=O)NCc1ccc(-c2nn([C@@H](C)C(F)(F)F)c(N)c2C(N)=O)cc1` is reported as 74.9 ± 2.7% (STK26 (Homo sapiens, UniProt Q9P289); kinase activity, inhibitor, HotSpot radiometric; 1000 nM, added: ATP at Km).

Some of these lines once more:
`COc1ccc(-c2coc3cc(O)ccc3c2=O)c(O)c1O` gave a remaining activity of 49.3% (DCLRE1A; exonuclease activity, inhibitor, fluorescence HTS; 10 µM, 80 min, added: 8 nM 5P-FQ substrate).
With `O=C1NC(=O)/C(=C/c2ccc(-c3ccc(F)cc3O)o2)S1` the remaining activity was 94% (EPHB1; enzyme activity; 10 µM).
